Results of several laboratories.
Every numbered part comes from another study and shows a few of its results, in no order.

Sample 1 — technique: RNA Bind-n-Seq; molecule type: RNA; medium: in vitro; tested at: 365 nM; reference: no-protein control; reading: higher = stronger binding
Target: RNA binding protein fox-1 homolog 2, RRM domain, GST-SBP tag (RBFOX2, Homo sapiens, UniProt O43251-10, residues 100-194)
Notes: natural RNA segment, single round, ends assumed
Constant ends, left off below: GGGAGUUCUACAGUCCGACGAUC … UGGAAUUCUCGGGUGCCAA
`GUCUGGUCCCUGGCUCCUCUGACCAGCCCUUAGGCUAUGUGGUGGCUUCUCUCUGCCUCAGUGUCCGGGUCUGUAAGGUGGGCAGUUGAUGAUUUGUGGCAUCUCAACCA` — result for “RBNS enrichment (R)”: 0.448.
`AAUUGUUGUUGUGUGUACAUUUGAUUUUCAUAAAGAUGGUAGUAAGUCAAUGCAUUAACCCUCAUCUGUGUAUUAUUUGUUCACAAGUUCCAGAGGUUGAAGGACUGACU`: “RBNS enrichment (R)” 0.463.
Under “RBNS enrichment (R)”, `AGUGCUGGGUUUAAAGGUAUGCACCACCACCACCACCUGGUUUUAUGUUAUUUUCUAAAAUUGUCAUUCCUUUGCAACAUAUGAGCAUUAAUAUCUUUUCUCUUUUAACA` is recorded as 0.827.
For `UUUGUAAUUUUGCAAAACAUAUCUUGAGUUGUUUAAACAGUCAAAAUGUUUGAUAUUUUAUACCAGCUUAUGAGCUCAAAGUACUACAGCAAAGCCUAGCCUGCAUAUCA`, “RBNS enrichment (R)” read 0.713.
For `UUACACUGAUCUUGUUCCACUGAUUACUCUCUCUGACGAGUCCAUCACCUGCAACUUAAAUGAACAAGCUUACAUCCCAUUUUGAGUGAAGAUUUUGAGGUUUUUAAUUU`, “RBNS enrichment (R)” read 0.634.
`GUAGAUUUGCUGGACCUGAUCCCCAAGCACAGGAGUGGUACCCUCCACAGAAGCUGGGGGAGAGUCUGCAGCAGGCCUGAGCCUGCUGAUGUCAGUGCUGACUGAGUCCA`: “RBNS enrichment (R)” 2.99.

Sample 2 — technique: protein binding microarray; molecule type: double-stranded DNA, one strand shown; medium: in vitro; tested at: not given; reference: not given; reading: higher = stronger binding
Target: Histone acetyltransferase KAT6A, winged helix 1, GST fusion (KAT6A, Homo sapiens, UniProt Q92794, residues 1-85)
Notes: 8-mer, flanks averaged, mean of 2 arrays, mostly near background
Target sequence (chain): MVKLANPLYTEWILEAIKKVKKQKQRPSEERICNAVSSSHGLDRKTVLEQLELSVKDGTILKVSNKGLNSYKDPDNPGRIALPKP
The E-score of `CACTGCGA` is reported as 0.0304.
With `TGCCTCAA` the E-score was -0.0779.
For `ACACCTTG`, the E-score was -0.193.
`AACCTTGC` has an E-score of -0.0195.
The E-score of `AGTCTGAA` is reported as -0.139.
`AGTATATG` gave an E-score of -0.156.

Sample 3 — technique: RNA Bind-n-Seq; molecule type: RNA; medium: in vitro; tested at: not given; reference: input RNA pool; reading: higher = stronger binding
Target: RING finger protein unkempt homolog, zinc fingers 1-6, GST-SBP tag (UNK, Homo sapiens, UniProt Q9C0B0, residues 30-357)
Notes: RNA with constant flanks, human and mouse sites, ends assumed
Constant ends, left off below: GGGAGUUCUACAGUCCGACGAUC … CAACAGAGGAUUGAGCAUCA
Construct (chain): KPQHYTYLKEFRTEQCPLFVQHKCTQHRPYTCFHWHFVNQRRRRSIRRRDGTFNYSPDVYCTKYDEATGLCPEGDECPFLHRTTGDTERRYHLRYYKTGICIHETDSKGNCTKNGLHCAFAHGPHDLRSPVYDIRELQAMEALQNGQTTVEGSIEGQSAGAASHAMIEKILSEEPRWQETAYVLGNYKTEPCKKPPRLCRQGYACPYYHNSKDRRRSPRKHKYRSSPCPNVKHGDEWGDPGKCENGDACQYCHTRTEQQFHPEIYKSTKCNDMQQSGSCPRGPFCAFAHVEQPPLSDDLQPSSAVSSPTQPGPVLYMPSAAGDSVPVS
For `UAUGCCUGGAUGUGAGGAGUGGUAAUUCGUGUCCUCCUCAUGCUUGUGAAGCAGGCAUUUGAUCAAGCUAUUUCCUGAUUAUUCCAAAUGUCAUUUACAUUCAAAACAUUUUAACACUUG`, the bound/input enrichment was 0.218 ratio.
The bound/input enrichment of `AAAACACUUUUCCGUAACAUUUUCUCUCUGCGACUCCCAGAGCUUUUAGUAUCUCCAGAAUGUUAUUUUCCAUUUUCUAUACGACUCAAAAGCAAUAUAAACUCCAAAAAAUCUACGAAA` is reported as 0.91 ratio.
With `AGGUUUGAAGUGAAGAUGAUGCUCAUGAACCUUAUCUCCAGAUUGGUGGGAAUUCAUGAGCUUUUCCUCUUCAAUUUCUAUCCCUUUUUGCAAAGGUUUCUGCAGCCCCACCAAAGAGAA` the bound/input enrichment was 0.0612 ratio.
`GACCGAAACCCCUACUAUGGGGGUGAGAGCUCUUCCAUCACACCCCUGGAGGAGCUAUAUAAGCGCUUUCAGAUACUGGAAGGGCCCCCUGAAUCAAUGGGCCGGGGCCGAGACUGGAAU` gave a bound/input enrichment of 0.192 ratio.
`CAUGGACAGCAAGCCUUGGGUAACCGGACCAGGCCAAGGGUCUACAAUUCUCCAACAAAUAGCUCCUCUACCCAGGAUUCUAUGGAGGUUGGCCACAGUCACCACUCCAUGACAUCCCUG` gave a bound/input enrichment of 0.0634 ratio.
`GUUGCUGCCUUUAUGGACAUGGGUACCAAUUGCUUUUUGUAAUAUGGUAAAAAUGUGAGCUAGCACUUCUGCAUUGAUUUUUUUUUUUUUGUUUAACAUGUAUUCAGAUUGAGAAUAUGA` gave a bound/input enrichment of 0.483 ratio.
The bound/input enrichment of `CAGAUUCCCAGCCUUUCAGCCAACCGUUCUCUCACAGAAGGCCUUGUCCUGGACACAAUGAAUGAUAGCCUCAGCAAGAUCCUUCUAGACAUCAGUUUCCCUGGCCUGGAGGAGGACCCU` is reported as 0.165 ratio.

Mixed results
`PhoQ, residues 284 288 289 292 302 303 SCCLKL` has a fold induction of 5.8 (PhoP, residues 12 14 15 18 19 STHWV (Escherichia coli, UniProt P23836); Sort-seq, refers to: YFP reporter; E. coli; PhoQ-PhoP variant library, added: 10 µM Mg2+; reference: high Mg2+ state, higher = stronger signaling).
